Results collected from several papers.
Each numbered part is a random draw from the data of one study; scales do not carry over between parts. Positions count from the first letter of the parent shown.

Set 1 — method: DHFR PCA, deep sequencing; sample: yeast; with: (+)-ABA 0.39 µM; reference: wild-type fitted maximum; direction: higher = stronger binding
Target: ABI1, truncated, D143A, DHFR fusion (Arabidopsis thaliana)
Setting: methotrexate growth selection, single substitutions
Starting sequence: PYL1, truncated, DHFR fusion (Arabidopsis thaliana); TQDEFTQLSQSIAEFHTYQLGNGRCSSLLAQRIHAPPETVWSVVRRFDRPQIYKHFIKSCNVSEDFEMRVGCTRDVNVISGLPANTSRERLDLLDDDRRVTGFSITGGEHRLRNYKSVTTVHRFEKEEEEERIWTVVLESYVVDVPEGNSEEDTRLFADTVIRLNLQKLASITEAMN
Variant | relative binding score [%]
D75F | 41.7
G148T | -29.9
E128S | 53.3
T73S | 16
L94M | 16.5

Set 2 — method: RNA Bind-n-Seq; form: RNA; sample: in vitro; tested at: 365 nM; reference: no-protein control; direction: higher = stronger binding
Target: RNA binding protein fox-1 homolog 2, RRM domain, GST-SBP tag (RBFOX2, Homo sapiens, UniProt O43251-10, residues 100-194)
Setting: natural RNA segment, single round, ends assumed
Shared flanks, not repeated: GGGAGUUCUACAGUCCGACGAUC … UGGAAUUCUCGGGUGCCAA
Strand | RBNS enrichment (R)
ACUCUUUCCUUUGUGAGCUGUUAAUCCACAAUUACUGACCAUACUAAUAGUAAGUGUGAUUUGAUUCUAAAUAAUAGGGUAGGUUUGGCUAUAACAGAUGCUUUUAAAGC | 0.374
AAACACUCUUCAGAGAAAUCUGCAUUCUAUUUCUCAUGUAUAAAACUAGGAAUCCUCCAACCAGGCUCCUGUGAUAGAGUUCUUUUAAGCCCAAGAUUUUUUAUUUGAGG | 3.75
GCCGGCCUCAGGACCCUCCCUGGAGGGGCUGCCACCUCUGCCCUCAUCUCCAGGGCCUUGACCUCACUGGACUGUGACUGUCCUCAGGACACCUGCCCCUCCUCACCUAA | 0.637
UAUAUUACAAGGGCCCCAGUGUUAAUGUCUUAGAUUUUCAGUAUUUGAACUUAUUUUUUUAAAUUCUGUCAUUGAGAUAAGAAUAAUUCAGGUAGCAUCUGAAAUUUUAA | 0.775
GCAGGGAGAAUACUUCCAACAGUUGAGGUGUUACCAAACCACUUGAGAAUUCAUGAGCACUUUAACUCUAAACUCUGAAUUUCAAAGCUUGAUGUGAAGUCCUCUAGAAU | 0.603
GAUUAUGAGCUAAUUUUUUUUAUAGGACACAGAAUUCUAUUCAAUGCUGUUAAAUAUGCAAAUAGUUUAAUCUUUUUUUCUUUUGUUGUUUGAUGGGAAAUUGUGACAUU | 0.884

Set 3 — target: CCNE1, cyclin fold, Cln2 fusion (human); method: yeast growth competition, sequencing; sample: yeast; setting: strong parent motif; reference: not given; direction: higher = stronger binding
Starting sequence: RBL1 docking peptide (human); GSAKRRLFGEDPP
Variant | normalised enrichment score
R6G | -0.133
P13H | 6.83
S2Y | 5
K4W | 1.12
P12Q | 6.15
P13V | 6.85
P12V | 6.42
G9C | 7.51

Single results of other studies
Molecule | target | assay | test system | setting | how to read | endpoint | result
PhoQ, residues 284 288 289 292 302 303 TSTLRA | PhoP, residues 12 14 15 18 19 HLGGL (Escherichia coli, UniProt P23836) | Sort-seq, measured: YFP reporter | E. coli | PhoQ-PhoP variant library, with: 10 µM Mg2+ | reference: high Mg2+ state, higher = stronger signaling | fold induction | 7.47

Excerpt of the above (set 2):
Strand | RBNS enrichment (R)
GCAGGGAGAAUACUUCCAACAGUUGAGGUGUUACCAAACCACUUGAGAAUUCAUGAGCACUUUAACUCUAAACUCUGAAUUUCAAAGCUUGAUGUGAAGUCCUCUAGAAU | 0.603
ACUCUUUCCUUUGUGAGCUGUUAAUCCACAAUUACUGACCAUACUAAUAGUAAGUGUGAUUUGAUUCUAAAUAAUAGGGUAGGUUUGGCUAUAACAGAUGCUUUUAAAGC | 0.374
GCCGGCCUCAGGACCCUCCCUGGAGGGGCUGCCACCUCUGCCCUCAUCUCCAGGGCCUUGACCUCACUGGACUGUGACUGUCCUCAGGACACCUGCCCCUCCUCACCUAA | 0.637
